Results collected from several papers.
Lines come from different studies, so protocols differ. Numbers after ± are the reported error.
TMPRSS2: Transmembrane protease serine 2 (TMPRSS2, Homo sapiens, UniProt O15393)
AGTR1: Type-1 angiotensin II receptor (AGTR1, Homo sapiens, UniProt P30556)
FGFR1: Fibroblast growth factor receptor 1 (FGFR1, Homo sapiens, UniProt P11362)
Trpv1: Transient receptor potential cation channel subfamily V member 1 (Trpv1, Rattus norvegicus, UniProt O35433)
TMPRSS11D: Transmembrane protease serine 11D (TMPRSS11D, Homo sapiens, UniProt O60235)

SMILES	target	test	system	setting	scale	inhibition
CC(C)=C1C=C2CCC3C(C)(C(=O)O)CCCC3(C)C2CC1 (stereo not drawn)	Replication protein A 70 kDa DNA-binding subunit (RPA1, Homo sapiens, UniProt P27694)	ssDNA binding, EMSA		200 µM		no effect
CCc1nc2ccc(Cl)cn2c1C(=O)NC/C=C(\C)CC/C=C(\C)CCC=C(C)C	MT-CYB (Bos taurus, UniProt P00157)	oxygen consumption	bovine heart submitochondrial particles	1 µM		no inhibition
CCCCCCCCN(CCC(=O)Nc1ccccc1)C(=O)c1ccccc1	Protein-S-isoprenylcysteine O-methyltransferase (Homo sapiens, UniProt O60725)	enzyme activity, inhibitor, hit selection screen	Sf9 membranes	50 µM, with: biotin-farnesyl-L-cysteine		80%
Cc1ccc(O)c(C(=O)Nc2ccc(CN)cc2)c1	TMPRSS2	enzyme activity, inhibitor, fluorescence		10 µM		43.2%
CCCCOC(=O)NS(=O)(=O)c1sc(CC(C)C)cc1-c1ccc(Br)c(Cn2ccnc2)c1	AGTR1	ligand displacement, radioligand		10 µM, cell membranes		18%
Cc1nc(CN(C)c2ncnc3c2cnn3CCO)cs1	Heat shock protein HSP 90-beta, N-terminal domain (HSP90AB1, Homo sapiens, UniProt P08238)	binding, fluorescence polarization		10 µM, with: FITC-geldanamycin		44 ± 10.3%
COc1cc(OC)cc(C(O)c2c[nH]c3ncc(C(F)(F)F)cc23)c1 (stereo not drawn)	FGFR1	enzyme activity, inhibitor		1 µM		89%
CC(C)c1ccc(C(=O)Nc2ccc(CN)cc2)c(O)c1	Kallikrein-6 (Homo sapiens, UniProt Q92876)	enzyme activity, inhibitor		10 µM		80%
CCC1(CC)C[C@@H](NC(=O)Nc2cccc3c(C)nccc23)c2cc(F)ccc2O1	Trpv1	proton-induced activation, inhibitor, FLIPR calcium	HEK293 expressing rat TRPV1	up to 11.25 µmol/L, pH 5.0	partial inhibition	17.7 ± 3.7%
O=C(Cc1ccc(Cl)cc1)Nc1ccc(S(=O)(=O)Nc2cnc3ccccc3n2)cc1	Peptidyl-prolyl cis-trans isomerase A (PPIA, Homo sapiens, UniProt P62937)	enzyme activity, inhibitor		10 µM		3.2%
Oc1c(C(Nc2nccs2)c2cccc(OCc3ccccc3)c2)ccc2cccnc12 (stereo not drawn)	Genome polyprotein, NS2B-NS3 protease (GP1, West Nile virus, UniProt Q9Q6P4)	enzyme activity, inhibitor		25 µM, 0.1% CHAPS, with: tetrapeptide substrate		87.2 ± 0.89%
C[C@@H](N)C1CCN(S(=O)(=O)c2cccc3cnccc23)CC1	Serine/threonine-protein kinase RIO3 (RIOK3, Homo sapiens, UniProt O14730)	cell-free assay, competition with immobilised ligand		10 µM		> 95%
CCC(CC)c1nc(-c2ccc(O)cc2O)cs1	Semaphorin-3C, with neuropilin-1 (SEMA3C, Homo sapiens, UniProt Q99985)	SEMA3C binding, inhibitor		25 µM, with: SEMA3C	baseline: DMSO	> 50%
OC(c1cccc(Cl)c1)c1c[nH]c2ncc(C(F)(F)F)cc12 (stereo not drawn)	FGFR1	enzyme activity, inhibitor		1 µM		25%
CCCCCCNc1ccc([N+](=O)[O-])cc1S(=O)(=O)NC	Solute carrier family 12 member 2 (SLC12A2, Homo sapiens, UniProt P55011)	chloride influx	HEK293 transfected with SLC12A2	100 µM	baseline: DMSO	29.4 ± 2.8%
Cc1cc(O)c(C=O)c2c1C(=O)Oc1c(CO)c(O)c3c(c1O2)C(O)OC3=O (stereo not drawn)	cGMP-specific 3',5'-cyclic phosphodiesterase (PDE5A, Homo sapiens, UniProt O76074)	enzyme activity, inhibitor		5 µg/mL		60.4%
O=C(NC1CCNCC1)c1ccc2ccccc2c1O	TMPRSS2	enzyme activity, inhibitor		10 µM, with: Boc-QAR-AMC		< 20%
CC(=O)N[C@@H]1[C@@H](O)[C@H](O)[C@@H](CO)N[C@@H]1CP(=O)(O)OP(=O)(O)OC/C=C(/C)CC/C=C(\C)CCC=C(C)C	Peptidoglycan glycosyltransferase (Clostridioides difficile, UniProt Q189X7)	transglycosylase activity, HPLC		100 µM, with: NBD-lipid II		30%

SMILES	target	test	system	setting	scale	inhibition
O=C(CSc1ccc(Cl)cc1)Nc1ccc2scnc2c1	Trpv1	capsaicin-activated current, inhibitor, two-electrode voltage clamp	Xenopus oocytes	100 µM, with: capsaicin 1 µM		inhibited
NCc1ccc(NC(=O)c2c[nH]c3ccccc3c2=O)cc1	TMPRSS11D	enzyme activity, fluorogenic substrate		10 µM, with: Boc-VPR-AMC		< 20%
CC(C)(O)Cn1nc(-c2ccccc2)c2c(Cl)c(-c3ccccc3)nnc21	Heat shock protein HSP 90-beta (HSP90AB1, Homo sapiens, UniProt P08238)	chaperone activity		8.46 µM, with: citrate synthase aggregation		40.1 ± 19.1%
CCCCOC(=O)NS(=O)(=O)c1sc(CC(C)C)cc1-c1ccc(OC)c(Cn2ccnc2)c1	AGTR1	ligand displacement, radioligand		10 µM, cell membranes		23%
COc1cc(Cc2c[nH]c3ncc(C(F)(F)F)cc23)cc(OC)c1	FGFR1	enzyme activity, inhibitor		1 µM		91%
COC(=O)c1cc(C(=O)OC)cc(-c2cc(C)c3ncc(C(N)=O)c(Nc4cccc(OC)c4)c3c2)c1	Class 1 phosphodiesterase PDEB1 (PDEB1, Trypanosoma brucei, UniProt Q8WQX9)	enzyme activity, inhibitor		10 µM		50%
FC(F)(F)c1cnc2[nH]cc(Cc3ccc(OCc4ccccc4)cc3)c2c1	FGFR1	enzyme activity, inhibitor		1 µM		29%
COc1cc(C(=O)NC2CCC(N3CCN(CC4CCC5(CCCC5)C4)CC3)CC2)c(F)cc1Nc1ncc2c(n1)N(C1CCCC1(F)F)CC(F)(F)C(=O)N2C (stereo not drawn)	Tyrosine-protein kinase ABL2 (ABL2, Homo sapiens, UniProt P42684)	cell-free assay, TR-FRET		10 µM		0.08%
O=C1NCCC(O)c2ccccc21 (stereo not drawn)	Protein mono-ADP-ribosyltransferase PARP16 (PARP16, Homo sapiens, UniProt Q8N5Y8)	enzyme activity, inhibitor		10 µM		92%
O=C(c1ccncc1)N1N=C2/C(=C/c3ccc(F)cc3)CCCC2C1c1ccc(F)cc1 (stereo not drawn)	Prostaglandin G/H synthase 2 (PTGS2, Homo sapiens, UniProt P35354)	enzyme activity		concentration not given		70.3%
N=C(N)NC(=N)NNc1ccc([N+](=O)[O-])cc1[N+](=O)[O-]	Mycosin-1 (Mycolicibacterium thermoresistibile, UniProt G7CDQ2)	protease activity, inhibitor, quenched fluorescent peptide		150 µM, with: 20 µM fluorogenic peptide substrate	baseline: DMSO control	55.6%
O=C(O)c1ccc(CS(=O)(=O)CC(=O)C23CC4CC(CC(C4)C2)C3)o1	11-beta-hydroxysteroid dehydrogenase 1 (HSD11B1, Homo sapiens, UniProt P28845)	enzyme activity in cells, inhibitor	HEK293	1 µM		4%
COc1cccc(Cc2c[nH]c3ncc(C(F)(F)F)cc23)c1	FGFR1	enzyme activity, inhibitor		0.1 µM		53%
Cc1c(-c2c3c(N)nnc(C)c3nn2-c2ccccc2)oc2ccccc12	FGFR1	enzyme activity, inhibitor, ELISA		0.1 µM		31.8%
NCc1ccc(NC(=O)c2ccc3ccccc3c2O)cc1	TMPRSS11D	enzyme activity, inhibitor, fluorescence		10 µM		36.8%
FC(F)(F)Oc1cccc(Cc2c[nH]c3ncc(C(F)(F)F)cc23)c1	FGFR1	enzyme activity, inhibitor		1 µM		21%
CCOC(=O)c1c(NC(=O)CN2CCN(c3ccccn3)CC2)sc2c1CCC(c1ccccc1)C2 (stereo not drawn)	L-lactate dehydrogenase A chain (LDHA, Homo sapiens, UniProt P00338)	enzyme activity, inhibitor, fluorescence		100 µg/mL		34.7%
COc1cc2ccc(C(=O)Nc3ccc(CN)cc3)c(O)c2cc1OC	TMPRSS11D	enzyme activity, fluorogenic substrate		10 µM, with: Boc-VPR-AMC		< 20%

Some of these lines once more:
SMILES	target	test	system	setting	scale	inhibition
CCOC(=O)c1c(NC(=O)CN2CCN(c3ccccn3)CC2)sc2c1CCC(c1ccccc1)C2 (stereo not drawn)	L-lactate dehydrogenase A chain (LDHA, Homo sapiens, UniProt P00338)	enzyme activity, inhibitor, fluorescence		100 µg/mL		34.7%
N=C(N)NC(=N)NNc1ccc([N+](=O)[O-])cc1[N+](=O)[O-]	Mycosin-1 (Mycolicibacterium thermoresistibile, UniProt G7CDQ2)	protease activity, inhibitor, quenched fluorescent peptide		150 µM, with: 20 µM fluorogenic peptide substrate	baseline: DMSO control	55.6%
CCC1(CC)C[C@@H](NC(=O)Nc2cccc3c(C)nccc23)c2cc(F)ccc2O1	Trpv1	proton-induced activation, inhibitor, FLIPR calcium	HEK293 expressing rat TRPV1	up to 11.25 µmol/L, pH 5.0	partial inhibition	17.7 ± 3.7%
O=C(Cc1ccc(Cl)cc1)Nc1ccc(S(=O)(=O)Nc2cnc3ccccc3n2)cc1	Peptidyl-prolyl cis-trans isomerase A (PPIA, Homo sapiens, UniProt P62937)	enzyme activity, inhibitor		10 µM		3.2%
